# Results collected from several papers.
# Lines come from different studies, so protocols differ. Several values in a cell are separate wells, animals, samples, runs or records. ± gives the spread as reported.
Compound,test,test system,conditions,scale,quantity,result
CCCCCCCCCCCC1CC(=O)NC(CC(N)=O)C(=O)NC(Cc2ccc(O)cc2)C(=O)NC(CC(N)=O)C(=O)NC(CCC(N)=O)C(=O)N2CCCC2C(=O)NC(CC(N)=O)C(=O)NC(CO)C(=O)N1 (stereo not shown),calcein leakage,DOPC/DOPG/CHOL liposomes,"concentration not given, together with: 20 wt% PEG-8000",,fusion time constant,8 ± 2 min
CC(C)C[C@@H]1NC(=O)[C@@H](Cc2c[nH]c3ccccc23)NC(=O)[C@H](CCCNC(=N)N)NC(=O)[C@@H](CCC(=O)O)NC(=O)[C@H](CCC(N)=O)NC(=O)[C@@H](CCC(=O)O)NC(=O)[C@H](CCCNC(=N)N)NC(=O)[C@@H](Cc2c[nH]c3ccccc23)NC1=O,"Luminex, item: MCP-1 CCL2","LDLr-/- mice, Western diet, liver","dose not given, 4 weeks",,cytokine level,470 ± 150 pg/g tissue
c1c[nH]c(CNCc2cc(CNCc3ccc[nH]3)cc(-c3cc(CNCc4ccc[nH]4)cc(Cn4cc(COCCOCCOCCOCCOCc5cn(Cc6cc(CNCc7ccc[nH]7)cc(-c7cc(CNCc8ccc[nH]8)cc(CNCc8ccc[nH]8)c7)c6)nn5)nn4)c3)c2)c1,,"hACE2 mice, bronchoalveolar lavage fluid",dose not given,baseline: control,IL-18 level,decreased
CCN(Cc1ccccc1)C(=O)CCc1nc(CN2CCN(C(=O)Cc3ccc(OC)c(OC)c3)CC2)no1,beam walking test,mouse CCI model,"1 mg/kg, unit not given",lower is better,foot slips,2.44 ± 0.36
O=C(O)c1ccc(-c2nc(-c3ccccc3Cl)c3sccn23)cc1,,"C57BL/6 mice, 5-fluorouracil treated","oral, 100 mg/kg daily, day 4",,platelet recovery,55.2% and 69.1% and 79.4% and 50.3%
COc1ccccc1-c1n[nH]c2nc(N[C@H]3CC[C@H](NS(=O)(=O)CC(C)C)CC3)ncc12,"bead binding, competition bead pull-down, item: LINJ.36.2130",Leishmania donovani extract,10 µM,baseline: vehicle,relative abundance,1.14
CC(C)C[C@H](NC(=O)[C@H](Cc1ccccc1)NC(=O)[C@H](C)NC(=O)[C@@H](CS)NC(=O)CNC(=O)[C@H](N)CO)C(=O)N[C@@H](CO)C(=O)N[C@H](C(=O)N[C@@H](CCCCN)C(=O)N[C@@H](CCCCN)C(=O)N[C@@H](CCC(N)=O)C(=O)N[C@@H](Cc1ccccc1)C(=O)N[C@@H](CCC(=O)O)C(=O)N[C@@H](CCC(=O)O)C(=O)N[C@@H](CC(C)C)C(=O)N[C@H](C(=O)N[C@@H](CC(C)C)C(=O)NCC(=O)N[C@@H](CCC(=O)O)C(=O)N[C@@H](Cc1ccccc1)C(=O)N[C@@H](CC(C)C)C(=O)N[C@H](CCCCN)C(=O)N[C@H](CC(C)C)C(=O)N[C@H](CC(=O)O)C(=O)N[C@@H](CCCNC(=N)N)C(=O)N[C@H](CCCNC(=N)N)C(=O)N[C@@H](CCCNC(=N)N)C(=O)N[C@@H](CCCCN)C(=O)O)[C@@H](C)O)C(C)C,"immunoblot, item: SMAC, survivin (BIRC5)","mouse A549 xenograft, tumour","intravenous, dose not given",,SMAC and survivin expression,decreased
CC(C)CC1NCCc2cc(O)c(O)cc21 (stereo not shown),ABTS scavenging,,"10 min, dark",,IC50,14.1 µM
COc1ccccc1-c1n[nH]c2nc(NC3CCN(C(=O)Cc4ccc(F)cc4F)CC3)ncc12,"bead binding, competition bead pull-down, item: LINJ.30.0120",Leishmania donovani axenic amastigote extract,10 µM,baseline: vehicle,relative abundance,1.1
CC(C)[C@@H]1NC(=O)[C@@H]2CCCN2C(=O)[C@@H](C(C)C)NC(=O)[C@H]2CCCN2C(=O)[C@H](C(C)C)NC(=O)[C@@H]2CCCN2C(=O)[C@@H](C(C)C)NC(=O)[C@H]2CCCN2C(=O)[C@H](C(C)C)NC(=O)[C@@H]2CCCN2C(=O)[C@@H](C(C)C)NC(=O)[C@H]2CCCN2C1=O,,sheep lipid bilayer,"10 µM, pH 7.4, 23 °C, together with: 0.1 M K+ vs Li chloride",,bi-ionic potential,-106 mV

# Repeated from above:
Compound,test,test system,conditions,scale,quantity,result
CCCCCCCCCCCC1CC(=O)NC(CC(N)=O)C(=O)NC(Cc2ccc(O)cc2)C(=O)NC(CC(N)=O)C(=O)NC(CCC(N)=O)C(=O)N2CCCC2C(=O)NC(CC(N)=O)C(=O)NC(CO)C(=O)N1 (stereo not shown),calcein leakage,DOPC/DOPG/CHOL liposomes,"concentration not given, together with: 20 wt% PEG-8000",,fusion time constant,8 ± 2 min
CC(C)C[C@@H]1NC(=O)[C@@H](Cc2c[nH]c3ccccc23)NC(=O)[C@H](CCCNC(=N)N)NC(=O)[C@@H](CCC(=O)O)NC(=O)[C@H](CCC(N)=O)NC(=O)[C@@H](CCC(=O)O)NC(=O)[C@H](CCCNC(=N)N)NC(=O)[C@@H](Cc2c[nH]c3ccccc23)NC1=O,"Luminex, item: MCP-1 CCL2","LDLr-/- mice, Western diet, liver","dose not given, 4 weeks",,cytokine level,470 ± 150 pg/g tissue
